Assay results from different studies.
Several values in a cell are separate wells, animals, samples, runs or records. ± gives the spread as reported.

`O=c1[nH]c(N2CCC3(CC2)CN(CCO)c2cc(F)cc(F)c23)nc2c1CCCC2` has a remaining compound of 18% (mouse liver microsomes; concentration not given, time not given).
The remaining compound of `CCC1CC2C(C)=CC3C(=O)CCCC3C=CC(C)=CC2C(=O)O1` (centres unmarked) is reported as 106% (mouse plasma; 10 µM, 2 h, 37 °C).
With `O=C(O)C(F)(F)c1ccccc1Nc1c(Cl)cccc1Cl` the remaining compound was 108 ± 2.8% (glucuronidation; human liver microsomes; 30 min, together with: UDPGA).
`COc1cc(-c2cnc3nc2NCCCNS(=O)(=O)c2cccc(c2)N3)ccc1F` has a remaining compound of 90% (Sprague-Dawley rat liver microsomes; 10 µM, 60 min, pH 7.4, 37 °C, together with: NADPH).
With `CCc1c2c(nc3ccc(O)cc13)-c1cc3c(c(=O)n1C2)COC(=O)[C@@]3(CC)OC(=O)[C@H](N)C(C)C` the remaining compound was 50% (PBS; 5 µM, 120 min, 37 °C).
For `CSCC(NC(=O)c1cc(Cl)ccc1Cl)C(=O)NC(CC(C)C)B(O)O` (centres unmarked), the remaining compound was 50 ± 1.58% (human liver microsomes; 3 µM, 60 min, pH 7.4, together with: NADPH).
`CCCC(CCC)NC(=O)c1ccc(OC)c(O)c1` has a remaining compound of 85% (rat liver microsomes; 1.0 µM, 10 min).
`CO[C@@H](C(N)=O)[C@H](NC(=O)c1ccc(NC(=O)c2ccc([N+](=O)[O-])cc2)cc1)C(=O)Nc1ccc(C(=O)Nc2ccc(C(=O)Nc3ccc(C(=O)O)cc3)c(O)c2OC(C)C)cc1` has a remaining compound of greater than 90% (mouse plasma; 4 h).
`CONC(=O)[C@H]1[C@@H](O)[C@@]2(O)c3c(cc(OC)nc3OC)O[C@@]2(c2ccc(C#N)cc2)[C@@H]1c1ccccc1` has a remaining compound of 94.5 ± 0.7% (simulated gastric fluid with pepsin; 50 µM, 1 h, pH 1.2, 37 °C).
`N=C(N)NCCC[C@H](NC(=O)[C@@H]1CCCN1C(=O)[C@H](Cc1ccccc1)NC(=O)[C@@H]1CCCN1C(=O)[C@H](Cc1c[nH]cn1)NC(=O)[C@@H](N)Cc1ccccc1)C(=O)O` gave a remaining compound of 52.7 ± 12.9% (LC-MS/MS; Sprague Dawley rat plasma; 5 ng/mL, 10 min, room temperature).
`CCCCCCCCCCCCCCCC(=O)N[C@@H](CCC(=O)NCCCC[C@H](NC(=O)[C@H](C)NC(=O)[C@H](C)NC(=O)[C@H](CCC(N)=O)NC(=O)CNC(=O)[C@H](CCC(=O)O)NC(=O)[C@H](CC(C)C)NC(=O)[C@H](Cc1ccc(O)cc1)NC(=O)[C@H](CO)NC(=O)[C@H](CO)NC(=O)[C@@H](NC(=O)[C@H](CC(=O)O)NC(=O)[C@H](CO)NC(=O)[C@@H](NC(=O)[C@H](Cc1ccccc1)NC(=O)[C@@H](NC(=O)CNC(=O)[C@H](CCC(=O)O)NC(=O)[C@H](C)NC(=O)[C@@H](N)Cc1cnc[nH]1)[C@@H](C)O)[C@@H](C)O)C(C)C)C(=O)N[C@@H](CCC(=O)O)C(=O)N[C@@H](Cc1ccccc1)C(=O)N[C@H](C(=O)N[C@@H](C)C(=O)N[C@@H](Cc1c[nH]c2ccccc12)C(=O)N[C@@H](CC(C)C)C(=O)N[C@H](C(=O)N[C@@H](CCCNC(=N)N)C(=O)NCC(=O)N[C@@H](CCCNC(=N)N)C(=O)NCC(=O)O)C(C)C)[C@@H](C)CC)C(=O)O` has a remaining compound of 4.56% (HPLC; simulated intestinal fluid with pancreatin; 2 h).
With `N[C@H](COc1ccccc1C(F)(F)F)c1ccccc1` the remaining compound was greater than 95% (human liver microsomes; 1 h, together with: NADPH).
With `CC1=C(C2=C(C)C(=O)c3c(cc(O)c(O)c3Cc3ccccc3)C2=O)C(=O)c2cc(O)c(O)c(Cc3ccccc3)c2C1=O` (racemic) the remaining compound was 81.7 ± 5.4% (rat liver microsomes; 4 µM, 1 h, pH 7.4).
For `Fc1ccc(Nc2c(Cl)cccc2Cl)c(Cc2nnn[nH]2)c1`, the remaining compound was 91 ± 12% (glucuronidation; human liver microsomes; 30 min, together with: UDPGA).
`CC12CC3CC(C)(C1)CC(NC(=O)NC1CCC(Oc4ccc(C(=O)O)cc4)CC1)(C3)C2` (centres unmarked) gave a remaining compound of 8 ± 2% (human liver microsomes; 1 µM, 30 min, 37 °C, 1 mg/mL microsomes, together with: NADPH).
`[Ru+2].c1ccc(-c2cccc(-c3ccccn3)n2)nc1.c1ccc(-c2ccccn2)nc1.c1cnccn1` has a remaining compound of 100% (water; 24 h, 37 °C).
For `Cc1ccc(OCC(=O)N(Cc2cccs2)c2ccn[nH]2)cc1`, the remaining compound was less than 15% (rabbit, liver microsomes; 10 µM, 0 min, at NADPH addition).
`C[N+]1(CC(=O)OC2CCCCCCCCCCC2)CCCCC1` has a remaining compound of 88% (human liver microsomes; 60 min, without NADPH).
The remaining compound of `CC[C@H](C)[C@H](NC(=O)[C@H](Cc1c[nH]c2ccccc12)NC(=O)[C@H](CCCNC(=O)c1ccc2c(c1)C(=O)OC21c2ccc(O)cc2Oc2cc(O)ccc21)NC(=O)CNC(=O)[C@H]1CCCN1C(=O)[C@@H](NC(=O)[C@H](CCCNC(=N)N)NC(=O)[C@@H](NC(=O)[C@H](Cc1c[nH]c2ccccc12)NC(=O)[C@H](CCCNC(=N)N)NC(C)=O)C(C)C)C(C)C)C(=O)N[C@@H](CCCNC(=N)N)C(=O)N[C@@H](CCC(N)=O)C(N)=O` is reported as roughly 80% (HeLa cell lysate; 30 µM, 180 min, pH 7.6, 37 °C; baseline: time zero).
For `CCCC(CCC)NC(=O)c1ccc(O)c(OC)c1`, the remaining compound was 95% (rat liver microsomes; 1.0 µM, 10 min).
With `CC1=C(C=O)C(C)(C)CC=C1` the remaining compound was 22% (rat plasma; 500 µM, 4 h).
The remaining compound of `C=C1C[C@@]23CC[C@H]4[C@@](C)(CCC[C@@]4(C)C(=O)O[C@@H]4O[C@H](CO)[C@@H](O)[C@H](O)[C@H]4O)[C@@H]2CC[C@]1(O[C@@H]1O[C@H](CO[C@H]2O[C@H](CO)[C@@H](O)[C@H](O)[C@H]2O)[C@@H](O)[C@H](O)[C@H]1O[C@@H]1O[C@H](CO)[C@@H](O)[C@H](O)[C@H]1O)C3` is reported as 63.2 ± 1.09% (HPLC; Britton-Robinson buffer; 0.05 % w/v, time not given, pH 1.4; baseline: initial).
The remaining compound of `CCCCCCCCCCCCCCCC(=O)OC[C@H]1O[C@@H](n2cc(F)c(N)nc2=O)CS1` is reported as 33% (monkey plasma; 1 µM, 90 min, 37 °C; baseline: 0 min).
For `CC12CC3(C)CC(C)(C1)CC(NC(=O)NC1CCC(Oc4ccc(C(=O)O)cc4)CC1)(C2)C3` (centres unmarked), the remaining compound was 95 ± 4% (human liver microsomes; 1 µM, 30 min, 37 °C, 1 mg/mL microsomes, together with: without NADPH).
With `C[C@H](CCC(=O)NCCC(c1ccccc1)c1ccccc1)[C@H]1CC[C@H]2[C@@H]3CC[C@@H]4CC(=O)CC[C@]4(C)[C@H]3CC[C@]12C` the remaining compound was 99.3% (simulated intestinal fluid; 2 h).
The remaining compound of `NS(=O)(=O)Cc1ccccc1Nc1c(Cl)cccc1Cl` is reported as 82 ± 1.5% (human liver microsomes; 30 min, together with: NADPH).
The remaining compound of `CC(C)(CN)S[Se]Cc1ccc(-c2cccc(C(O)c3ccc(Cl)c(Cl)c3)c2)cc1` (centres unmarked) is reported as 82% (rat liver microsomes without NADPH; 1 h).
`COC(=O)c1ccc2c(c1)NC(=O)/C2=C(\Nc1ccc2c(c1)CCN2C(=O)CN1CCOCC1)c1ccccc1` has a remaining compound of 85.2% and 85% (CD-1 mouse plasma; 1 µM, 4 h, 37 °C).
For `O=c1c2ccccc2[se]n1CCCCCCn1[se]c2ccccc2c1=O`, the remaining compound was less than 5% (mouse liver microsomes; 5 µM, 4 h, pH 7.4, 37 °C).
With `Oc1ccccc1-c1nn(-c2ccccc2)[n+](-c2ccccc2)n1.[Br-]` the remaining compound was 93% (HPLC; fetal bovine serum; 24 h).
For `CCCCCCCCCCCCCCCC(=O)N[C@@H](CCCCN)C(=O)N[C@H](C(=O)N[C@H](C(=O)N[C@@H](CCCCN)C(=O)N[C@@H](CO)C(=O)O)[C@@H](C)O)[C@@H](C)O`, the remaining compound was 11.2% (LC-MS/MS; hairless mouse skin homogenate; 40 µg/mL, 60 min, pH 7.4, 37 °C).
`CC1(C)C(=CC=C(C=CC2=[N+](CCC[N+](C)(C)C)c3ccc(S(=O)(=O)[O-])cc3C2(C)C)CCC(=O)[O-])N(CCC[N+](C)(C)C)c2ccc(S(=O)(=O)[O-])cc21` has a remaining compound of 99% (100% serum; 24 h, pH 7.4, 37 °C).
For `C[C@@]1(C(=O)O)CC/C=C/[C@H](OC(=O)Nc2ccn([C@@H]3O[C@H](CO)[C@@H](O)C3(F)F)c(=O)n2)CC1`, the remaining compound was greater than 99% (mouse plasma; 1 µM, time not given, 37 °C).
The remaining compound of `Clc1cccc(Cl)c1Nc1ccccc1Cc1nnn[nH]1` is reported as 61 ± 2.8% (human liver microsomes; 30 min, together with: NADPH).
The remaining compound of `CN(C)c1ccc(NC(=S)N(C)c2ccccc2)cc1` is reported as 74% (metabolic stability; mouse liver microsomes; 3 µM, 30 min, together with: NADPH 1 mM).
With `C[C@H](CCC(=O)NCCc1ccc(-c2ccccc2)cc1)[C@H]1CC[C@H]2[C@@H]3CC[C@@H]4CC(=O)CC[C@]4(C)[C@H]3CC[C@]12C` the remaining compound was 99.1% (simulated intestinal fluid; 2 h).
The remaining compound of `[Br-].c1ccc(-c2nn(-c3ccccn3)[n+](-c3ccccc3)n2)cc1` is reported as 100% (HPLC; fetal bovine serum; 24 h).
`COc1cc(NC(C)=O)c2c(c1O)-c1c(OC)c(OC)cc3c1C(C2)N(C)CC3` (centres unmarked) gave a remaining compound of 93.5 ± 3.8% (rat lung homogenate; 100 µg/mL, 24 h, room temperature, post-preparative storage).

For quick reference, copied from above:
The remaining compound of `CN(C)c1ccc(NC(=S)N(C)c2ccccc2)cc1` is reported as 74% (metabolic stability; mouse liver microsomes; 3 µM, 30 min, together with: NADPH 1 mM).
With `C[C@H](CCC(=O)NCCc1ccc(-c2ccccc2)cc1)[C@H]1CC[C@H]2[C@@H]3CC[C@@H]4CC(=O)CC[C@]4(C)[C@H]3CC[C@]12C` the remaining compound was 99.1% (simulated intestinal fluid; 2 h).
The remaining compound of `[Br-].c1ccc(-c2nn(-c3ccccn3)[n+](-c3ccccc3)n2)cc1` is reported as 100% (HPLC; fetal bovine serum; 24 h).
